Measured values collected from several papers.
Parts stem from different laboratories: compare values within a part only. “And” joins repeats or separate records; there may be more than shown.
Chain of UniProt P30530 (whole entry, looked up): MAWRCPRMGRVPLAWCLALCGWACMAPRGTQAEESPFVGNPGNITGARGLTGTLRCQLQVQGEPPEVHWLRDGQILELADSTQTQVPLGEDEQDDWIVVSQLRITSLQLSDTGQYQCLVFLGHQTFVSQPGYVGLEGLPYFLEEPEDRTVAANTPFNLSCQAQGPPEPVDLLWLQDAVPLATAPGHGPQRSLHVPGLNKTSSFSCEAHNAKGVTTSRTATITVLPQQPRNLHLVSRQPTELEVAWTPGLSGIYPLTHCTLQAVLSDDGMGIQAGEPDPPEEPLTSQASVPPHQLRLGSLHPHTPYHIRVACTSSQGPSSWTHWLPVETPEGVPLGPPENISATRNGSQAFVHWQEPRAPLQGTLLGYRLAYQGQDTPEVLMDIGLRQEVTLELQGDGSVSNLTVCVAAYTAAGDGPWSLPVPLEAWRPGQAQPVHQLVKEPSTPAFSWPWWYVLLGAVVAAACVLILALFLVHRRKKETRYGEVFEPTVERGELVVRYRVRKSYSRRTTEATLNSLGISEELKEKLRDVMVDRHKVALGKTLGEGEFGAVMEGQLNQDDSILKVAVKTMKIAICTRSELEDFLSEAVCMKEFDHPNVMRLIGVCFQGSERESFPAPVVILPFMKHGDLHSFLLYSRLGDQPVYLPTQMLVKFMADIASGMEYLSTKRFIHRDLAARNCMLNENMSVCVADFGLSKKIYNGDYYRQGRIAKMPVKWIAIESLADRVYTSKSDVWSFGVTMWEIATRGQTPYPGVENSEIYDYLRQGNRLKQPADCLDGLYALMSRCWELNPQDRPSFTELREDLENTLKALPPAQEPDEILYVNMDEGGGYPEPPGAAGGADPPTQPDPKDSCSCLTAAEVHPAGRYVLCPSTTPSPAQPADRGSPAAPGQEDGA
Chain of UniProt O43683 (whole entry, looked up): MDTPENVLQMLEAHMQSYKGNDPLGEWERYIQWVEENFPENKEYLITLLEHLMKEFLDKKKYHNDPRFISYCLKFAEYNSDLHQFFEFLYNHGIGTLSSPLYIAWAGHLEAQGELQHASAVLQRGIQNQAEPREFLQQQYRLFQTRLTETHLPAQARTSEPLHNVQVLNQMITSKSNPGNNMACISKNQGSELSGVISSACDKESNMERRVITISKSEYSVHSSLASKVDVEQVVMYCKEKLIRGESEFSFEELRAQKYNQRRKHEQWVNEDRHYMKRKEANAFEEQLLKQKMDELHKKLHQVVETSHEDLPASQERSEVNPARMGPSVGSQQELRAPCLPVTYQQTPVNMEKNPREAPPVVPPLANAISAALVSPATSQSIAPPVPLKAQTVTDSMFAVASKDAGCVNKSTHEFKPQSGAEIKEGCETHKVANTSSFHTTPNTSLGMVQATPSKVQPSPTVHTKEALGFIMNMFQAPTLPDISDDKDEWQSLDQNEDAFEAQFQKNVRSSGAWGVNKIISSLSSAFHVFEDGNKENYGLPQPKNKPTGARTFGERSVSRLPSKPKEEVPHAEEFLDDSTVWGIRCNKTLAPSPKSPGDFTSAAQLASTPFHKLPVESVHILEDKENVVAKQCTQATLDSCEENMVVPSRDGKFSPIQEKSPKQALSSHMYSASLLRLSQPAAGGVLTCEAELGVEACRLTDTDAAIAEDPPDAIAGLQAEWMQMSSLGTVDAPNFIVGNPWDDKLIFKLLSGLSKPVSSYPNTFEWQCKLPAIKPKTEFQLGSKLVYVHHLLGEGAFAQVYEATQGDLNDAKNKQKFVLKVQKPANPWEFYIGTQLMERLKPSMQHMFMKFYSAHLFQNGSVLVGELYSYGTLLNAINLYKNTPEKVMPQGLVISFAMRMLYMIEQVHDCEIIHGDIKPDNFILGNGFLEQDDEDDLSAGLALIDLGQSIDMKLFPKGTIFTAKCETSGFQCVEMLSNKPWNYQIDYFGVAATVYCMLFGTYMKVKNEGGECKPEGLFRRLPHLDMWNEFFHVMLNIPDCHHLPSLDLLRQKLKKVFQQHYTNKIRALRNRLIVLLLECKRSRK
Chain of UniProt P06493 (whole entry, looked up): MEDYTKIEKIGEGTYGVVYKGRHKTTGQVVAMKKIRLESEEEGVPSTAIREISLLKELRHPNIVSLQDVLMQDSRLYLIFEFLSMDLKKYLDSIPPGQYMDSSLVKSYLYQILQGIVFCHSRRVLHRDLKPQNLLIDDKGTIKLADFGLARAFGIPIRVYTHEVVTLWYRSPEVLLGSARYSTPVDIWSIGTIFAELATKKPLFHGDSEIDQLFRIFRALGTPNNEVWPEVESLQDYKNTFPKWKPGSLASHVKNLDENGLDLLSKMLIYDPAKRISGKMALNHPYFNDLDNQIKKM

Block 1
Target: DNA polymerase theta, ATPase domain (POLQ, Homo sapiens, UniProt O75417)
Chain of UniProt O75417 (whole entry, unmodified, looked up): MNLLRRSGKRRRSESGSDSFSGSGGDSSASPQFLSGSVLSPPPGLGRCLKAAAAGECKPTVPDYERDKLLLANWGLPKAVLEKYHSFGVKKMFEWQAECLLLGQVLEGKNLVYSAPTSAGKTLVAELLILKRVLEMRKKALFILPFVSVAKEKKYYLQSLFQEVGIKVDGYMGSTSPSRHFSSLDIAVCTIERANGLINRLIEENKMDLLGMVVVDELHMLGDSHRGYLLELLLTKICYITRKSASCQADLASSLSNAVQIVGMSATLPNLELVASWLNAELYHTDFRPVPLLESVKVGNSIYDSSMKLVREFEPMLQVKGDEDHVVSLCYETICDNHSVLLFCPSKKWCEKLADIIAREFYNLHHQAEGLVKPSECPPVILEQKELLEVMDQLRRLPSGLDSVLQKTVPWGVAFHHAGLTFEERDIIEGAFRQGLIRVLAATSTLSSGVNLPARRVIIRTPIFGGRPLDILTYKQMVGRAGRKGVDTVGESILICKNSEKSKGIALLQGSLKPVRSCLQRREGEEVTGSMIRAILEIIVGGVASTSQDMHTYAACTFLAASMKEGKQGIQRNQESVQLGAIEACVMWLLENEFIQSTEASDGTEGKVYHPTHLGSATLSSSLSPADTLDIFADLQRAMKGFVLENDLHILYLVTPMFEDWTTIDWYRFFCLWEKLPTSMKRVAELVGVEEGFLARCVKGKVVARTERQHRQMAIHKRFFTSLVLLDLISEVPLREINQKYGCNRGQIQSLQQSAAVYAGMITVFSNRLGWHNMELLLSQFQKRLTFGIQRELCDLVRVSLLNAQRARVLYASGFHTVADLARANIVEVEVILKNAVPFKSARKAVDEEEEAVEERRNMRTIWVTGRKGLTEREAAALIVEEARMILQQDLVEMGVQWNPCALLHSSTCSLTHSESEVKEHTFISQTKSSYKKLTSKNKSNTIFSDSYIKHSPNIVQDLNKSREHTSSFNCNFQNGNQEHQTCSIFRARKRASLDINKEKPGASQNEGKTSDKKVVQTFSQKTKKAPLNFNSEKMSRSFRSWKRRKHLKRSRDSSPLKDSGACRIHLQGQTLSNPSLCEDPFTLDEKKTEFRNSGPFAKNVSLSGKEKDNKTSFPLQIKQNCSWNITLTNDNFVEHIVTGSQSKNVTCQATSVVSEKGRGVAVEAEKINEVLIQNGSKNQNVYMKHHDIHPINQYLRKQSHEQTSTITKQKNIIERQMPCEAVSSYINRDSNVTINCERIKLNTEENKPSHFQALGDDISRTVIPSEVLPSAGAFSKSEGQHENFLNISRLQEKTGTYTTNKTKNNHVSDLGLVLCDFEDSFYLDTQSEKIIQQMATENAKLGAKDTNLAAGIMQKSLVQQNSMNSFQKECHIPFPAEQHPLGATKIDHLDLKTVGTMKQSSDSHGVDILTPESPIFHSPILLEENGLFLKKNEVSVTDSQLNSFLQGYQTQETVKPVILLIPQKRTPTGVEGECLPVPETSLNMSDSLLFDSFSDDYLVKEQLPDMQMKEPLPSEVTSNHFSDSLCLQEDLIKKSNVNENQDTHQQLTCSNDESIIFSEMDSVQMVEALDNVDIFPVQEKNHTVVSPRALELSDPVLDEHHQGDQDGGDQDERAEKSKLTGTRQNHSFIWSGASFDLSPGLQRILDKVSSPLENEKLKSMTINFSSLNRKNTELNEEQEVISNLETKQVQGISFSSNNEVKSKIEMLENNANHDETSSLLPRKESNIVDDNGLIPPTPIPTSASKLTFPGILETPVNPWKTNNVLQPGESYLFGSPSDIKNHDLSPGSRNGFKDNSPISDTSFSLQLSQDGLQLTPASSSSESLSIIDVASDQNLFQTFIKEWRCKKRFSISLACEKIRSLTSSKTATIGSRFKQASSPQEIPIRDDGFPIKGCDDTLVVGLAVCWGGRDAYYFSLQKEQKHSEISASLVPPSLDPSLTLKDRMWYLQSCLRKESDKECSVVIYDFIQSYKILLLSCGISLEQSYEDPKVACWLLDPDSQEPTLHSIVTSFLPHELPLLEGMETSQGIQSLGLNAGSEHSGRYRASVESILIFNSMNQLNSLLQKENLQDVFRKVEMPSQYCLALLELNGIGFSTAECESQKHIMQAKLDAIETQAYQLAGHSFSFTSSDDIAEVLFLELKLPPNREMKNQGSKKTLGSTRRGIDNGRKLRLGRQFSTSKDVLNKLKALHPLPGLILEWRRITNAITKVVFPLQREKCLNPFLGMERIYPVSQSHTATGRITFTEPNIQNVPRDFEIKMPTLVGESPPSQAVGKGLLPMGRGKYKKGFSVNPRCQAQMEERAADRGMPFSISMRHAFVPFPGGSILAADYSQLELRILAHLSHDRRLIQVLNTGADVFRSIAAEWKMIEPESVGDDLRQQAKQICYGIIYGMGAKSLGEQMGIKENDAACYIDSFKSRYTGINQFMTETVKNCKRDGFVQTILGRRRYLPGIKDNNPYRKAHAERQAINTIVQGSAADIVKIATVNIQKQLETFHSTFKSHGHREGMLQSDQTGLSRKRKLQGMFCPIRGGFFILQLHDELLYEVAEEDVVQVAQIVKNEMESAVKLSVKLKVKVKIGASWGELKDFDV
Effect on: enzyme activity
Mode: inhibitor
Concentration: 77 µM
Relative to: untreated
Quantity: remaining activity
Nc1nc(Nc2ccc(S(N)(=O)=O)cc2)nn1C(=S)Nc1c(F)cccc1F: 108%
O[C@@H]1CO[C@H]2[C@@H]1OC[C@@H]2O: 99.5%
OCc1ccc(-c2nn(Cc3ccccc3)c3ccccc23)o1: 101%
CO[C@H]1C(=O)[C@]2(C)[C@@H](OC)C[C@H]3OC[C@@]3(OC(C)=O)[C@H]2[C@H](OC(=O)c2ccccc2)[C@]2(O)C[C@H](OC(=O)[C@H](O)[C@@H](NC(=O)OC(C)(C)C)c3ccccc3)C(C)=C1C2(C)C: 107%
N[C@@H](CC(=O)N1CCn2c(nnc2C(F)(F)F)C1)Cc1cc(F)c(F)cc1F: 101%
CC1(C)S[C@@H]2[C@H](NC(=O)Cc3ccccc3)C(=O)N2[C@H]1C(=O)O: 89.4% and 104%
CCCCC[C@H](O)/C=C/[C@H]1[C@H](O)CC(=O)[C@@H]1CCCCCCC(=O)O: 101% and 102%
C[N+](C)(C)CC(=O)O: 109%
Cc1c(C)c2c(c(C)c1O)CCC(C)(C(=O)O)O2 (stereo not drawn): 100%
Cc1[nH]c(/C=C2\C(=O)Nc3ccc(S(=O)(=O)N(C)c4cccc(Cl)c4)cc32)c(C)c1C(=O)N1CCN(C)CC1: 102%
O=C(O)c1ccccc1OP(=O)(O)O: 110%
COc1ccc(NS(=O)(=O)c2sc3ccc(Cl)cc3c2C)cc1N1CCNCC1: 102%
CCS(=O)(=O)Nc1ccc2c(c1)/C(=C(/Nc1ccc(CN3CCCCC3)cc1)c1ccccc1)C(=O)N2: 100%
Cn1c(=O)c2nc(-c3ccccc3)[nH]c2n(C)c1=O: 105%
O=C1NCN(c2ccccc2)C12CCN(CCCC(c1ccc(F)cc1)c1ccc(F)cc1)CC2: 103%

Block 2
Species: human
Matrix: microsomes or S9
Concentration: 2 µM
Time: 0.5 h
Quantity: remaining compound
CCCn1c(N)c(N(CCOC)C(C)=O)c(=O)n(CC(=O)Nc2cc(Cl)cc(Cl)c2)c1=O: 53.7%
Cc1cccc(OCC(O)Cn2nc(C)c3c(C)onc3c2=O)c1 (stereo not drawn): 47%
Fc1ccc2nc(-n3cncn3)c(-c3ccc(Cl)cc3Br)c(Cl)c2c1: 91.5%
CC(=O)c1ccc(N2CCC(OC(=O)CCc3nnc[nH]3)CC2)cc1: 61.8%
CC(=O)c1cnc2c(C)c(-c3ccc(C)cc3)nn2c1C: 1.16%
O=S(=O)(c1ccccc1)n1ccc2ncccc21: 29.7%
c1ccc(OCCN2CCCC3(C2)Nc2ccccc2-n2cccc23)cc1 (stereo not drawn): 2.37%
CO[C@H]1C[C@H]2CC(C)(O)[C@@H](/C=C/c3ccc(-c4cccc(F)c4)cn3)[C@@H]2C[C@H]1NC(=O)OC(C)(C)C (stereo partly drawn): 22.6%
Cc1nc2ccccc2n1Cc1cc(NCc2ccccc2OC(C)C)nc(N)n1: 1.6%
Cc1ccc(NC(=O)CN(C)S(=O)(=O)c2ccc(Br)s2)c(Cl)c1: < 1%
OC(CN1CCCCCC1)CN(c1ccccc1)c1ccccc1 (stereo not drawn): 8.15%
CNc1nc(NC(C)(C)C)nc(NC(C)(C)C)n1: 71.5%
COC(=O)c1c(NC(=O)N2CCN(C(=O)C(C)C)CC2)sc2c1CC(C)(C)OC2: 88%
Cc1n[nH]c(CC(=O)N2C[C@@H](C)[C@](O)(C(C)C)C2)n1: 94.7%

Block 3
SMILES: Cc1c[nH]c2nccc(Oc3c(F)cc(Nc4cc(Cl)nc(N)n4)cc3F)c12
Effect on: cell-free assay
Method: competition with immobilised ligand
Concentration: 0.1 µM
Quantity: remaining binding
Death-associated protein kinase 3 (DAPK3, Homo sapiens, UniProt O43293): 97%
Cyclin-dependent kinase 16 (CDK16, Homo sapiens, UniProt Q00536): 99%
Fibroblast growth factor receptor 4 (FGFR4, Homo sapiens, UniProt P22455): 100%
Serine/threonine-protein kinase VRK2 (VRK2, Homo sapiens, UniProt Q86Y07): 76%
Myosin light chain kinase, smooth muscle (MYLK, Homo sapiens, UniProt Q15746): 80%
Aurora kinase C (AURKC, Homo sapiens, UniProt Q9UQB9): 72%
Receptor-type tyrosine-protein kinase FLT3 (FLT3, Homo sapiens, UniProt P36888, K663Q): 87%
Cyclin-dependent kinase 18 (CDK18, Homo sapiens, UniProt Q07002): 100%
Protein-tyrosine kinase 6 (PTK6, Homo sapiens, UniProt Q13882): 100%
Tyrosine-protein kinase receptor UFO (AXL, Homo sapiens, UniProt P30530): 93%
Insulin receptor-related protein (INSRR, Homo sapiens, UniProt P14616): 91%
Non-receptor tyrosine-protein kinase TYK2, JH1 (TYK2, Homo sapiens, UniProt P29597): 78%
Tyrosine-protein kinase Yes (YES1, Homo sapiens, UniProt P07947): 96%
Serine/threonine-protein kinase ULK1 (ULK1, Homo sapiens, UniProt O75385): 92%
Receptor-type tyrosine-protein kinase FLT3 (FLT3, Homo sapiens, UniProt P36888): 76%
Activin receptor type-2A (ACVR2A, Homo sapiens, UniProt P27037): 94%
Tyrosine-protein kinase ABL1, non-phosphorylated (ABL1, Homo sapiens, UniProt P00519, Q252H): 85%
Inhibitor of nuclear factor kappa-B kinase subunit beta (IKBKB, Homo sapiens, UniProt O14920): 69%
Mitogen-activated protein kinase kinase kinase kinase 1 (MAP4K1, Homo sapiens, UniProt Q92918): 73%
Phosphatidylinositol 4,5-bisphosphate 3-kinase catalytic subunit alpha isoform (PIK3CA, Homo sapiens, UniProt P42336, E542K): 85%
Mitotic checkpoint serine/threonine-protein kinase BUB1 (BUB1, Homo sapiens, UniProt O43683): 75%
1-phosphatidylinositol 3-phosphate 5-kinase (PIKFYVE, Homo sapiens, UniProt Q9Y2I7): 98%
Mitogen-activated protein kinase kinase kinase 14 (MAP3K14, Homo sapiens, UniProt Q99558): 92%
BMP-2-inducible protein kinase (BMP2K, Homo sapiens, UniProt Q9NSY1): 100%
Receptor tyrosine-protein kinase erbB-4 (ERBB4, Homo sapiens, UniProt Q15303): 100%

Block 4
SMILES: CCCCc1c(-c2ccc(OC)cc2)[nH]c2nccnc12
Effect on: enzyme activity
Mode: inhibitor
Concentration: 0.5 µM
Relative to: control
Quantity: remaining activity
Ephrin type-B receptor 4 (EPHB4, Homo sapiens, UniProt P54760): 89.5%
Tyrosine-protein kinase Blk (BLK, Homo sapiens, UniProt P51451): 96.7%
Cyclin-dependent kinase 6, with cyclin D3 (CDK6, Homo sapiens, UniProt Q00534): 79.7%
Cyclin-dependent kinase 4, with cyclin D3 (CDK4, Homo sapiens, UniProt P11802): 69.7%
MAP kinase-activated protein kinase 3 (MAPKAPK3, Homo sapiens, UniProt Q16644): 98.6%
Tyrosine-protein kinase receptor UFO (AXL, Homo sapiens, UniProt P30530): 110%
Cyclin-dependent kinase 1, with cyclin B (CDK1, Homo sapiens, UniProt P06493): 47.8%
Calcium/calmodulin-dependent protein kinase type II subunit beta (CAMK2B, Homo sapiens, UniProt Q13554): 97.6%
Ribosomal protein S6 kinase alpha-5 (RPS6KA5, Homo sapiens, UniProt O75582): 104%
Homeodomain-interacting protein kinase 4 (HIPK4, Homo sapiens, UniProt Q8NE63): 119%
Homeodomain-interacting protein kinase 2 (HIPK2, Homo sapiens, UniProt Q9H2X6): 109%
Tyrosine-protein kinase ABL1 (ABL1, Homo sapiens, UniProt P00519): 83.4%
Serine/threonine-protein kinase 17A (STK17A, Homo sapiens, UniProt Q9UEE5): 95.5%
Serine/threonine-protein kinase WNK3 (WNK3, Homo sapiens, UniProt Q9BYP7): 88.4%
Ephrin type-A receptor 4 (EPHA4, Homo sapiens, UniProt P54764): 85.5%
Dual specificity tyrosine-phosphorylation-regulated kinase 3 (DYRK3, Homo sapiens, UniProt O43781): 96.1%
Ribosomal protein S6 kinase alpha-6 (RPS6KA6, Homo sapiens, UniProt Q9UK32): 78.2%
3-phosphoinositide-dependent protein kinase 1 (PDPK1, Homo sapiens, UniProt O15530): 102%
Ephrin type-B receptor 1 (EPHB1, Homo sapiens, UniProt P54762): 76%
Testis-specific serine/threonine-protein kinase 2 (TSSK2, Homo sapiens, UniProt Q96PF2): 93.7%
Phosphorylase b kinase gamma catalytic chain, skeletal muscle/heart isoform (PHKG1, Homo sapiens, UniProt Q16816): 89.4%
Serine/threonine-protein kinase 16 (STK16, Homo sapiens, UniProt O75716): 58.7%
Mitogen-activated protein kinase kinase kinase kinase 4 (MAP4K4, Homo sapiens, UniProt O95819): 66.5%
Tyrosine-protein kinase Srms (SRMS, Homo sapiens, UniProt Q9H3Y6): 96.7%

For quick reference, copied from above (block 4):
Ephrin type-A receptor 4 (EPHA4, Homo sapiens, UniProt P54764): 85.5%
Cyclin-dependent kinase 4, with cyclin D3 (CDK4, Homo sapiens, UniProt P11802): 69.7%
MAP kinase-activated protein kinase 3 (MAPKAPK3, Homo sapiens, UniProt Q16644): 98.6%
3-phosphoinositide-dependent protein kinase 1 (PDPK1, Homo sapiens, UniProt O15530): 102%
Homeodomain-interacting protein kinase 4 (HIPK4, Homo sapiens, UniProt Q8NE63): 119%
Ribosomal protein S6 kinase alpha-5 (RPS6KA5, Homo sapiens, UniProt O75582): 104%
Tyrosine-protein kinase ABL1 (ABL1, Homo sapiens, UniProt P00519): 83.4%
Ribosomal protein S6 kinase alpha-6 (RPS6KA6, Homo sapiens, UniProt Q9UK32): 78.2%
Ephrin type-B receptor 4 (EPHB4, Homo sapiens, UniProt P54760): 89.5%
